Results gathered from unrelated publications.
Parts stem from different laboratories: compare values within a part only.

Block 1 — technique: EMSA with sequencing; form: double-stranded DNA, one strand shown; medium: in vitro; tested at: 10 and 20 nM; relative to: negative control set to 0; direction: higher = stronger binding
Target: Hepatocyte nuclear factor 3-alpha (Foxa1, Mus musculus, UniProt P35582, residues 1-468, full length assumed)
Setting: whole designed probe, mean of two concentrations, ends assumed
Residues (chain): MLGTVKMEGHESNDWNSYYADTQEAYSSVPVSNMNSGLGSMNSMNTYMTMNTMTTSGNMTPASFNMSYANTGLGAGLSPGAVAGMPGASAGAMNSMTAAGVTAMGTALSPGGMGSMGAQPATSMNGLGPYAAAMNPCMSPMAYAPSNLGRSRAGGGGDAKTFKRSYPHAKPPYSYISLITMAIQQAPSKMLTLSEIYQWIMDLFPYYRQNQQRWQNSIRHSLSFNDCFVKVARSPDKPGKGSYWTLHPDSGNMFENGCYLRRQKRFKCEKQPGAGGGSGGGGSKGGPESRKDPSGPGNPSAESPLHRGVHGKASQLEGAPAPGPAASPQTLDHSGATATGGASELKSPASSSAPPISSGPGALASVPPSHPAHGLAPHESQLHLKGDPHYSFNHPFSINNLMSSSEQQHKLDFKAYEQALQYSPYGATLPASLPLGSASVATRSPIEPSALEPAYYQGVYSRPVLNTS
`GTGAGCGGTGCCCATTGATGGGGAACCCTTATTTCTTTTTTGAAAATACAGTGACTTAGCGAGTGATACAGTATGAATGAAAGTTTTGAAGTTGGTTCATGGTGTATAAAGAGAAACAAAGTAAACAAAGCTCTTAATGGAAATACATACTTGGGACCAAACAACAGCCTATCTAAATGTTTTTTTTTGGTATTCATTTGGAAATTAATCAGATAATAATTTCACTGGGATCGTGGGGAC` — result for “normalised bound fraction”: 0.487 ratio.
For `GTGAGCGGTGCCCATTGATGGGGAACTAAAATGGAAGCATGCAAGTTTAGATTGAAAGAGAAAATATAAGCTTCAAAAACTCTTTAGTTCTACATTTTACAAAAGTAATCTTTTTACAAAGTAATCTTAAAGTAATCTTTATGATAGTAATTACTATCATACCACAGGTATAAACAGTAACTTGGAAAAATTTTCCCTTTTAAGACCTTGCATAAAACATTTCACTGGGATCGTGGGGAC`, “normalised bound fraction” read -0.0548 ratio.
`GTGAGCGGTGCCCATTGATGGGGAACGGCATGAAGCAGCTGCTATAACAGAATGTGAAGCTGGGAGGTCTTAACTCTTAGATATACTGTATTTTCTCCCTCAGGCTTGCATGAGTCACTGTTTACCTACAGAGAAGAAAGAGCACTGGTCTTTGTCAATAGCCCTCACTGAGTTGAGAGATAACAGTTTCCCCATGGGAATCCTTGGTATGGATTAGATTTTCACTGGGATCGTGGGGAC` — result for “normalised bound fraction”: 0.234 ratio.
`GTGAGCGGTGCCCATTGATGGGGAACAGGTGAATTGGCTGCTTCCATCCTGGCTTGGAACTTCAGACATAGAAGCCTTGGGACTTTCTCAGGACTTTCTCCAGATCTGTCACATGCTCAGCAAACAAGCATCTCTGTGCTGACTCATGCCTTAGCCAGGGATGTTGGTGAAACTGTGTGTTGGTCTAGGTACCTAGCCCATGCTAGGTGCTCATCGAATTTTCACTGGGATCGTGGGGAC`: “normalised bound fraction” 0.106 ratio.
Under “normalised bound fraction”, `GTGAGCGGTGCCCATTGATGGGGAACCATTAGAGTCAAAGTTGTTAAGGGGAGCTAGTCATAGCTACCACGTGGCCAGGCATGTGGAACCAGACACCAGGCACACATCATGTAACATCATATTTACTTTAATGAATCATCACAACCTAGTTCATAGTGACACACTACTTGAGATATATAGAATAACATTATTACCCAGTAAGTATGTGAACATTCCGATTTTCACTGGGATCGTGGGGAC` is recorded as 0.341 ratio.
`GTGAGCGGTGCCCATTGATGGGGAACCAGGTTCTCCAGACTAACTAGACATTGGCAGGGTTGACTGATATTCTGCCAGCAAATCCCTCTTCTGCTCTAGTCAGCCAGGGCTGGTGACTGTGTAAACAAGACCCCTCTCACTCCTCCCACAGCTGTGCTGCAGATGACACACACACTTCTCTTAACAATTTTTATTGAAGAAAAAATAGGCTGCTTTGCATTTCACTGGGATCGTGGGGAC`: “normalised bound fraction” 0.429 ratio.
`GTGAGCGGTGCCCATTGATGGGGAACATCTTCCCCCTCTTCCTTGCCCCACCAGCTCACCTACGGGGGTTATTTGCACAAAGGAAAATAAATAAAGCCGGCATTCGTTAACGCAGTTCACGCGCATACTGCTGTTTGCTCTGGATCTAACATGGTCCTTTGGCGACGCCAGGCTCCGGGAGAGCAAAGCACCGTGTCAGGGCCATGATCCGGGGTGGCCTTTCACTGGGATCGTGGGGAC` — result for “normalised bound fraction”: 0.39 ratio.
For `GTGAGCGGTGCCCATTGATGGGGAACTCATTCTACCTGAGGAGTTGATATCTGACAGGTCTACATCTGAATTATTGTAAATGTATGTATTTTCATATGAGCATGCAAAGACATTCAAAGTAATCTAAAATAAATGCTAATTAATTAAATTATAATGCAAAAGCAGGGCTTCCTCACCTACAACTTTGTTAAATTTAGATCTCTTTGGAAAACACATTGTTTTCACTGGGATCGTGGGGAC`, “normalised bound fraction” read 0.0287 ratio.

Block 2 — technique: protein-binding microarray; form: double-stranded DNA, one strand shown; medium: in vitro; tested at: 0.8 µM; setting: whole 60-bp probe, no competitor; direction: higher = stronger binding
Target: Centromere-binding protein 1, full length, N-terminal tag (CBF1, Saccharomyces cerevisiae, UniProt P17106, residues 1-351)
UniProt P17106, sequence (whole entry, looked up): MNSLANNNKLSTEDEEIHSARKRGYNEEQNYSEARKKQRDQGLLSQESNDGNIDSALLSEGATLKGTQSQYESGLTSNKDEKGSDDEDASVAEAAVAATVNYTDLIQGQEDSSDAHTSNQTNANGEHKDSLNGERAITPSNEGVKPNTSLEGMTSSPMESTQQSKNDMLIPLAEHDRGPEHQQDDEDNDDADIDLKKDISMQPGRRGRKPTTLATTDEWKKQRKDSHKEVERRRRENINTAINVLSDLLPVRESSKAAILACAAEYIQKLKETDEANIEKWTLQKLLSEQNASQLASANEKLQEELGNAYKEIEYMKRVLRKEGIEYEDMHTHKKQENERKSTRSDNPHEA
`GAAAAATTCCCCAAGAAGGTGACCTATACATGATAGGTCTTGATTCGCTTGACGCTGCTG` has a fluorescence intensity of 539 a.u.
With `TGTACGAAGCTATATCACGTGCTTATAGTAGTTAGGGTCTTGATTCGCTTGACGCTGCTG` the fluorescence intensity was 16900 a.u.
`GAACCTAGACATTATCACGCAGCCCAAGTCTCTTAGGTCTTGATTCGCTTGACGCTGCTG` gave a fluorescence intensity of 558 a.u.
With `GAATTACGTATTGGTGGTGTGGGTGGGGACTTTTAGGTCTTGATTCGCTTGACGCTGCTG` the fluorescence intensity was 473 a.u.
`CTAACGTCATAGAAAAACCACGTGAAAAAAAAATTCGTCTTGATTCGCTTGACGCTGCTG` gave a fluorescence intensity of 5330 a.u.
`GAAGTCATAAAAAGAGACGTGATTAAACCTAAATAGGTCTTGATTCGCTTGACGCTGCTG` has a fluorescence intensity of 662 a.u.
For `TGTACGAAGCTATAGCGTGCGTTTATAGTAGTTAGGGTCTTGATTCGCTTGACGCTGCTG`, the fluorescence intensity was 556 a.u.
With `GAAGCGTGTCAGCGTGGTCGGCGTACGTAGCAATAGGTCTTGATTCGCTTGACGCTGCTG` the fluorescence intensity was 595 a.u.

Block 3 — cell line: HEK-293T; organism: VSV pseudotyped with SARS-CoV-2 spike; tested at: 10 µM; time: 16 h
With `O=C(CCCN1CCC(O)(c2ccc(Cl)cc2)CC1)c1ccc(F)cc1` the pseudovirus infection was 87.1%.
With `O=C(O)COCCN1CCN([C@H](c2ccccc2)c2ccc(Cl)cc2)CC1` the pseudovirus infection was 74.6%.
`C[N+]1(C)CCC(OC(=O)C(O)(c2ccccc2)C2CCCC2)C1` (stereo not drawn) has a pseudovirus infection of 91.2%.
`CNC[C@H](O)c1ccc(O)c(O)c1` gave a pseudovirus infection of 76.3%.

Block 4 — effect on: enzyme activity; action: inhibitor; tested at: 20 µM; setting: hit confirmation
Target: Replicase polyprotein 1ab, main protease (rep, Severe acute respiratory syndrome coronavirus 2, UniProt P0DTD1)
`NC(=S)NN=Cc1ccncc1` has an inhibition of 1.4%.
With `NCc1ccccc1CC(=O)N[C@@H]1C(=O)N2C(C(=O)O)=C(CSc3nnnn3CC(=O)O)CS[C@H]12` the inhibition was 40.6%.
`O=C(CC1Sc2ncnn2C1=O)Nc1ccc(Br)cc1` (stereo not drawn) has an inhibition of 109%.
The inhibition of `COc1oc(=O)c2cc(N)ccc2c1Cl` is reported as 32.6%.

Block 5 — action: inhibitor; tested at: 20 µM
Target: Replicase polyprotein 1ab, nsp13 helicase (rep, Severe acute respiratory syndrome coronavirus 2, UniProt P0DTD1)
With `C[C@@H](NCc1cc(Br)cc2[nH]c(=O)c(=O)[nH]c12)P(=O)(O)O` the inhibition was -1.87%.
`C=CC(=O)Nc1cc2c(Nc3ccc(F)c(Cl)c3)ncnc2cc1C#CC(C)(C)N1CCN(C)CC1` gave an inhibition of 5.1%.
`NC(=O)c1ncn([C@@H]2O[C@H](CO)[C@@H](O)[C@H]2O)c1O` has an inhibition of -5.11%.
With `CCC[C@@H]1C[C@@H](C(=O)N[C@@H]([C@H]2O[C@H](SC)[C@H](O)[C@@H](O)[C@H]2O)[C@@H](C)O)N(C)C1` the inhibition was 5.07%.
The inhibition of `[O-][n+]1cccc(CO)c1` is reported as -6.28%.
The inhibition of `CC(C)c1cccc2c(-c3ccccc3)cc(-c3ccc(-c4ccc(C(=O)O)cc4)[nH]3)nc12` is reported as 11.2%.
`COc1cccc(-c2ccc(NC(=O)C3=C(C(=O)O)CCC3)c(F)c2)c1` gave an inhibition of 7.54%.
For `C1N2CN3CN1CN(C2)C3`, the inhibition was -4.41%.
With `N#CCCCSC(=N)N` the inhibition was -1.96%.
`c1cc(-c2cnn3cc(-c4ccc(OCCN5CCCCC5)cc4)cnc23)ccn1` gave an inhibition of 23.3%.
The inhibition of `CCCCCOc1c(OC)ccc2cc(C(=O)NCc3ccc4c(c3)OCO4)c(=O)[nH]c12` is reported as 7.61%.
For `CCN(CC)Cc1cc(Nc2ccnc3cc(Cl)ccc23)ccc1O`, the inhibition was 9.85%.
For `N#CC(c1ccc(Cl)cc1)c1c(Cl)cc(-n2ncc(=O)[nH]c2=O)cc1Cl` (stereo not drawn), the inhibition was 20.1%.
For `Cn1c(N2CCCCS2(=O)=O)nc(C(=O)NCc2ccc(F)cc2)c(O)c1=O`, the inhibition was 5.39%.
With `Cc1o[nH]c(=O)c1C[C@@H](N)C(=O)O` (racemic) the inhibition was 7.41%.
`Cc1[nH]c(/C=C2\C(=O)Nc3ccccc32)c(C)c1CCC(=O)O` has an inhibition of 9.45%.
`COc1ccc2[nH]c([S+]([O-])Cc3ncc(C)c(OC)c3C)nc2c1` (stereo not drawn) gave an inhibition of 0.93%.
The inhibition of `Cc1ccnc2c1NC(=O)c1cccnc1N2C1CC1` is reported as 5.68%.
For `CSc1ccc(C(=O)N[C@@H]2CCCC[C@@H]2NC(=O)CNC(=O)c2cc(C(F)(F)F)ccc2NC(=O)NC(C)C)cc1`, the inhibition was -3.42%.
With `O=C(Nc1cccnc1)c1cc(-c2ccnc(F)c2)ccc1OCc1ccccc1` the inhibition was 6.82%.
`OC[C@H]1O[C@@H](n2cnc3c2N=CNC[C@H]3O)C[C@@H]1O` gave an inhibition of -1.06%.
`O=c1cccc2n1C[C@@H]1CNC[C@H]2C1` has an inhibition of 4.29%.
The inhibition of `C=C[C@H]1CN2CC[C@H]1C[C@H]2[C@H](OC(=O)OCC)c1ccnc2ccc(OC)cc12` is reported as 0.06%.
`C[C@H]1C[C@@H]2[C@H]([C@@H](O)C[C@@]3(C)[C@H]2CC[C@]3(O)C(=O)CO)[C@@]2(C)C=CC(=O)C=C12` has an inhibition of -1.12%.

Some of these lines once more (block 1):
`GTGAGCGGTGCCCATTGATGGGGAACAGGTGAATTGGCTGCTTCCATCCTGGCTTGGAACTTCAGACATAGAAGCCTTGGGACTTTCTCAGGACTTTCTCCAGATCTGTCACATGCTCAGCAAACAAGCATCTCTGTGCTGACTCATGCCTTAGCCAGGGATGTTGGTGAAACTGTGTGTTGGTCTAGGTACCTAGCCCATGCTAGGTGCTCATCGAATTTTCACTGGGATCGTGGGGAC`: “normalised bound fraction” 0.106 ratio.
`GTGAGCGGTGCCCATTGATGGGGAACCCTTATTTCTTTTTTGAAAATACAGTGACTTAGCGAGTGATACAGTATGAATGAAAGTTTTGAAGTTGGTTCATGGTGTATAAAGAGAAACAAAGTAAACAAAGCTCTTAATGGAAATACATACTTGGGACCAAACAACAGCCTATCTAAATGTTTTTTTTTGGTATTCATTTGGAAATTAATCAGATAATAATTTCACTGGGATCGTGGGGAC` — result for “normalised bound fraction”: 0.487 ratio.
`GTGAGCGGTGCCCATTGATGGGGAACGGCATGAAGCAGCTGCTATAACAGAATGTGAAGCTGGGAGGTCTTAACTCTTAGATATACTGTATTTTCTCCCTCAGGCTTGCATGAGTCACTGTTTACCTACAGAGAAGAAAGAGCACTGGTCTTTGTCAATAGCCCTCACTGAGTTGAGAGATAACAGTTTCCCCATGGGAATCCTTGGTATGGATTAGATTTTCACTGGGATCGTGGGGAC` — result for “normalised bound fraction”: 0.234 ratio.
Under “normalised bound fraction”, `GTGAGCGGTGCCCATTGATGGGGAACCATTAGAGTCAAAGTTGTTAAGGGGAGCTAGTCATAGCTACCACGTGGCCAGGCATGTGGAACCAGACACCAGGCACACATCATGTAACATCATATTTACTTTAATGAATCATCACAACCTAGTTCATAGTGACACACTACTTGAGATATATAGAATAACATTATTACCCAGTAAGTATGTGAACATTCCGATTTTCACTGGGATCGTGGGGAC` is recorded as 0.341 ratio.
`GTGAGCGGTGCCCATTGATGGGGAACATCTTCCCCCTCTTCCTTGCCCCACCAGCTCACCTACGGGGGTTATTTGCACAAAGGAAAATAAATAAAGCCGGCATTCGTTAACGCAGTTCACGCGCATACTGCTGTTTGCTCTGGATCTAACATGGTCCTTTGGCGACGCCAGGCTCCGGGAGAGCAAAGCACCGTGTCAGGGCCATGATCCGGGGTGGCCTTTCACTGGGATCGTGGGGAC` — result for “normalised bound fraction”: 0.39 ratio.
